Measured values collected from several papers.
A part holds a random share of what one study measured. Changes are numbered by the printed parent chain.

Set 1
Target: Ras GTPase-activating protein-binding protein 1, RRM domain (G3BP1, Homo sapiens, UniProt Q13283)
UniProt Q13283, sequence (whole entry, looked up): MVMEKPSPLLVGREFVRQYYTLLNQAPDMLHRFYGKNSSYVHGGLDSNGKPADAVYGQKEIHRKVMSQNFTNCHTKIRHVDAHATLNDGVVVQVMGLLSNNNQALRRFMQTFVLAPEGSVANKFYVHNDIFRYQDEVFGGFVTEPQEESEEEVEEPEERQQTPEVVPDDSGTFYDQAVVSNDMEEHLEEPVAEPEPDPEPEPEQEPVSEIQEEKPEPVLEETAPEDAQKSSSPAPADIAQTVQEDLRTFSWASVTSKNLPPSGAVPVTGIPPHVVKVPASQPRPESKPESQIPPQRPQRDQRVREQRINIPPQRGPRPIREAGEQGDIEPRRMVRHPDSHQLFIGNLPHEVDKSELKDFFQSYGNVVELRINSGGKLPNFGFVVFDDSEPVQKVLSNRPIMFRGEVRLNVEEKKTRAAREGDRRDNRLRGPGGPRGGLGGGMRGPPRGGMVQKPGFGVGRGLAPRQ
Technique: RNA Bind-n-Seq
Molecule type: RNA
Matrix: in vitro
Tested at: 1 µM
Setting: whole 134-nt RNA, ends assumed
Together with: 150 mM KCl
Relative to: input library
Direction: higher = stronger binding
All sequences stand within: GGGAGUUCUACAGUCCGACGAUC … UGGAAUUCUCGGGUGUCAAGG
Sequence	log2 enrichment
GCAGGAAGUAAAAACAAAUGGAAAUGCUUCGGAUAGUGGCAGGGGUGGGGGUUGGUAAGGAAAGGGUGGGAUGGGAGUGGGUAAAGAGUU	2.27
UAACUUUAGAGGAGGAUCUGAUGGAUAUUGCAGUGGACGUGGAUUUGGGGAUGGCUAUAAUGGGUAUGGAGGAGGACCUGGAGGUGGCAA	-0.724
AGUCCUGUGCUACACAUCGUAUGUACCGAAUCGGGGUGGGGAAAAAAAGGGGAGGGGAAAGUAUUAUGUUACGCCGUUCGGAUCUGCACU	1.07
ACCAUGCAGGUGGGCAUCUUUGGGAAGUGGGGCAAGGGGGGGAUAGGGACGGGGGUAACACUUUGGGAACAGGUGGUCCCAGGUCGUUUC	0.922
UAACUUUAGAGGAGGAUCUGAUGGAUAUGGCAGUGGACGUGGAUUUGGGGAUGGCUAUAAUGGGUAUGGAGCAGGACCUGGAGGUGGCAA	-0.331
UGCUGGCAGCCAAGCAGCAGCAGGAGAUGCUGGCAGCCAAGCGGCAGCAGGAGCUGGAGCAGCAGCGGCAGCGGGAGCAGCAGCGGCAGG	-0.511
CAAGUCCUGUGCUACACAUCGUAUGUACCGAAUCGGUUUUUUUGGUUUGGUUUGGAAAGUAUUAUGUUACGCCGUUCGGAUCUGCACUUC	-0.351
CAAGUCCUGUGCUACACAUCGUAUGUACCGAAUCGGAAAGGUUUGGUUUUUUUGGAAAGUAUUAUGUUACGCCGUUCGGAUCUGCACUUC	-0.323

Set 2
Target: RNA binding protein fox-1 homolog 2, RRM domain, GST-SBP tag (RBFOX2, Homo sapiens, UniProt O43251-10, residues 100-194)
Technique: RNA Bind-n-Seq
Molecule type: RNA
Matrix: in vitro
Tested at: 365 nM
Setting: natural RNA segment, single round, ends assumed
Relative to: no-protein control
Direction: higher = stronger binding
All sequences stand within: GGGAGUUCUACAGUCCGACGAUC … UGGAAUUCUCGGGUGCCAA
Construct (chain): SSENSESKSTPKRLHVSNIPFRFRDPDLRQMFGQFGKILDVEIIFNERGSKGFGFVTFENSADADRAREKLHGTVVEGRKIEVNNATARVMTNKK
Sequence	RBNS enrichment (R)
AGAUUUAUUCCCUUGUGUCAGGCCAAAGAAGUUCUUACAAAGUACAGUGGGUAGUGUCUAAAGCGACACUUUACUCACAGCCUGGCUUGAGUCAACAGGAACACCAUAGC	0.197
CGGCAUGAUCUAUGUUCUGGUGAGCUCUUAGAACAACACAGAAGAAUCGGUCCAGUUAAGUGCAUGCAAAACGCCACCAAUGAAGGGAUUCUAUCCAGCAAGGUCCUGUU	27.6
GGAACGGGAUUAAGUUUAAAACUUUCCCGUUUCUUUUUUGUUCGGUUGGUUUGGGUUUUUUUUUUUCUUUUUCUACUUUUAAAGUAUUUAAAUGCAAUUAUUUUUCUGCC	0.849
ACAUUACAAAGGAUUUGUUUGCUUAGCUGUCAACAAAAAGAAAACCUGAGGGAGCAUUCAGCAAGUCAGUUUGAGAUUAUUUUUCCUUUUCUACGUUGGAACGUGCCCCG	0.374
UUUACUGGUCCCAGCUUUUAGGUUCUUUAAGACACUAACAGGACUACAUAGAGGCUUUUUCAGCAUUACUGUGUCGUCUCCGUGCCAGAUGUGGCAAGAUCACCAUUAGC	0.397
AAAACCAAUUGGAACAACUUCGUCCGGUCACUGUGUUGUGCCCCCCCAUGGUUCAAGUGACAGUGGGUGACCUUGUCUGCCAAGAUCUUUCUUUUGAAUGUUUUGAACCC	0.309
AACCCACUCACUGGCUUUGACCUUCAACUGCCAGUCUGGGCAAAUACCAGUGAGCUCUGUUGUACCAAGACCAGGUCUUCAGAGCAUCUGAACCACUGUGGCCUUCUCUU	0.176
AUUUGAAGGCCAAGAGACCUUUGCUCUGCUGUGUGAGUCAGCCAGUCAAAAGCCCAGAAAGGCAAAAACCCAGCUUUCUUGUUUGGAGAGACAUGGGGCAUGUGUCUGCC	0.842

Single results of other studies
CCND2: CCND2, cyclin fold, Cln2 fusion (human)
P1: SLBP docking peptide (human); ARYKRKLLINDFG; partner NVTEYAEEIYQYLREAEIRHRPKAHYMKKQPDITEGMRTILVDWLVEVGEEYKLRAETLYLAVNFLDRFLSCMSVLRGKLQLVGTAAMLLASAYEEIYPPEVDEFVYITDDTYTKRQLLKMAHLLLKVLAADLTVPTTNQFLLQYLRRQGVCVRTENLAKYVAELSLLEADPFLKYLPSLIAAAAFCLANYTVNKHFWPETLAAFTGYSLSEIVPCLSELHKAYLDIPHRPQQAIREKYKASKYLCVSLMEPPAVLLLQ
P2: PKN2 docking peptide (human); VSAVRKLDFSDTM; partner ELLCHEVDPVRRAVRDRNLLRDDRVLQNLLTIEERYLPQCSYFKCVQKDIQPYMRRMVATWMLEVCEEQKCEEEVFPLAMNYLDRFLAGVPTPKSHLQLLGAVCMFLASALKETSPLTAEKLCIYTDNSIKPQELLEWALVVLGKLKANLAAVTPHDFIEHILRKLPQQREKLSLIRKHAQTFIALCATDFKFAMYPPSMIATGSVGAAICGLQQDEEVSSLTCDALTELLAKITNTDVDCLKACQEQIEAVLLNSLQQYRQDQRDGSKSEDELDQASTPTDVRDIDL
Substance	tested on	test	system	conditions	how to read	endpoint	result
P1 N10S	CCNA1, cyclin fold, Cln2 fusion (human)	yeast growth competition, sequencing	yeast	weak parent motif	relative to: not given, higher = stronger binding	normalised enrichment score	0.474
PhoQ, residues 284 288 289 292 302 303 NLALSC	PhoP, residues 12 14 15 18 19 LHHVQ (Escherichia coli, UniProt P23836)	Sort-seq, refers to: YFP reporter	E. coli	PhoQ-PhoP variant library, together with: 10 µM Mg2+	relative to: high Mg2+ state, higher = stronger signaling	fold induction	0.638
P2 K6H	CCND2	yeast growth competition, sequencing	yeast	strong parent motif	relative to: not given, higher = stronger binding	normalised enrichment score	1.79
GSPLKKLFTSTAL	Saccharomyces cerevisiae	peptide binding, yeast competitive growth sequencing	peptide, cyclin E2-Cln2 fusion	concentration not given, combined libraries	direction not given	binding score	-0.372
P2 K6N	CCND2	yeast growth competition, sequencing	yeast	strong parent motif	relative to: not given, higher = stronger binding	normalised enrichment score	1.22

Repeated from above (set 2):
Sequence	RBNS enrichment (R)
CGGCAUGAUCUAUGUUCUGGUGAGCUCUUAGAACAACACAGAAGAAUCGGUCCAGUUAAGUGCAUGCAAAACGCCACCAAUGAAGGGAUUCUAUCCAGCAAGGUCCUGUU	27.6
AGAUUUAUUCCCUUGUGUCAGGCCAAAGAAGUUCUUACAAAGUACAGUGGGUAGUGUCUAAAGCGACACUUUACUCACAGCCUGGCUUGAGUCAACAGGAACACCAUAGC	0.197
